Experimental data from different studies.
Lines come from different studies, so protocols differ. Several values in a cell are separate wells, animals, samples, runs or records. ± marks the error that the study gave.
Grm7: Metabotropic glutamate receptor 7 (Grm7, Rattus norvegicus, UniProt P35400)
pyrD: Dihydroorotate dehydrogenase (quinone) (pyrD, Acinetobacter baumannii, UniProt B7GZW7)
AKR1B1: Aldo-keto reductase family 1 member B1 (AKR1B1, Homo sapiens, UniProt P15121)
Kir3.1/Kir3.4: Kir3.1/Kir3.4 (Homo sapiens, UniProt P48544+P48549)

Compound | target or system | assay | test system | setting | scale | endpoint | result
C=CC(=O)N1CCC[C@@H](n2nc(-c3ccc(Oc4ccccc4)cc3)c3c(N)ncnc32)C1 | Insulin receptor-related protein (INSRR, Homo sapiens, UniProt P14616) | – | – | 1 µM | – | remaining activity | 70.9%
c1ccc(-c2n[nH]cc2-c2ccnc3ccccc23)nc1 | Cyclin-dependent kinase 1 (CDC28, Candida albicans, UniProt P43063) | kinase binding, competitor, MIB/MS competition, item: CDC28 | Candida albicans cell lysate | 10 µM | reference: DMSO | log2 fold change | 1.67
O=c1nc(SCc2cc(F)cc(C(F)(F)F)c2)nc(SCc2ccc3nc(Cl)ccc3c2)[nH]1 | DNA topoisomerase 2-alpha (TOP2A, Homo sapiens, UniProt P11388) | ATPase activity | – | 125 µM, together with: ATP 0.5 mM | – | ATP hydrolysis rate | 0.332 µM/min and 2.38 µM/min
Nc1nc2c(ncn2[C@@H]2O[C@H](COP(=O)(O)O)[C@@H](O)[C@H]2O)c(=O)[nH]1 | GUK1 (Homo sapiens, UniProt Q16774, D103A) | enzyme activity, NADH-coupled | – | 250 µM | – | reaction rate | 12.8 s⁻¹ and 12.1 s⁻¹ and 11.5 s⁻¹
COc1cc(Nc2ncc3c(n2)-c2ccc(Cl)cc2C(c2c(F)cccc2OC)=NC3)ccc1C(=O)O | CaMKI delta (CAMK1D) | enzyme activity | – | 1 µM | – | remaining activity | 62%
COc1cc(C(F)(F)F)cc2c(N3CCN4c5ccccc5OC[C@@H]4C3)c(C#N)nnc12 (single isomer, unassigned) | Grm7 | activity in words, positive allosteric modulator | rat | dose not given, together with: L-AP4 EC20 | – | activity | inactive
Cc1cc(Nc2ccc(C(F)(F)F)cc2)n2ncnc2n1 | pyrD | enzyme activity, inhibitor, colorimetric HTS, item: DCIP reduction | – | 3 µM | direction not given | robust Z-score | 19.7
Nc1ncnc2c1ncn2[C@@H]1O[C@H](COP(=O)(O)CP(=O)(O)OP(=O)(O)O)[C@@H](O)[C@H]1O | P2X purinoceptor 1 (P2RX1, Homo sapiens, UniProt P51575, K136A) | calcium influx | – | 100 nM | reference: ionomycin response | calcium influx | 36.8% and 38.5% and 52.3%
CCN(CCO)CCCC(C)Nc1ccnc2cc(Cl)ccc12 (centres unmarked) | Sodium channel protein type 5 subunit alpha (SCN5A, Homo sapiens, UniProt Q14524) | sodium current | – | 100 µM | – | activation V1/2 | -48.2 ± 4 mV
CCOCc1nc(O)c(-c2nnc(Cc3ccc(Cl)cn3)o2)c(O)c1-c1c(OC)cccc1OC | Apelin receptor (APLNR, Homo sapiens, UniProt P35414) | β-arrestin2 activation, agonist, BRET biosensor | HEK293 | – | – | Emax | 96 ± 2%
COc1cc(/C=C2\SC(=O)N(Cc3nc4ccccc4s3)C2=O)cc(OC)c1OC | AKR1B1 | enzyme activity, inhibitor | – | – | – | Hill slope | -0.565
CC(C)C[C@H](N)C(=O)O | snf (Aquifex aeolicus, UniProt O67854, L400A) | scintillation proximity | – | concentration not given, 400 nM protein | – | binding stoichiometry | 0.81 ± 0.05 mol/mol LeuT
C[C@H](CCC(C)(C)O)[C@H]1CC[C@H]2[C@@H]3CC=C4C[C@@](C)(O)CC[C@]4(C)[C@H]3CC[C@]12C | Glutamate NMDA receptor; GRIN1/GRIN2B (GRIN1/GRIN2B, Homo sapiens, UniProt Q05586+Q13224, F563A) | positive allosteric modulator, two-electrode voltage clamp | Xenopus oocytes expressing GluN2B-F563A | 10 µM, 0.02% cremophor, together with: 100 µM glutamate and glycine | reference: without compound | current response | 199 ± 15%
CSc1nc2nc(C)cc(Nc3ccc(S(F)(F)(F)(F)F)cc3)n2n1 | pyrD | enzyme activity, inhibitor, colorimetric HTS, item: DCIP reduction | – | 3 µM | direction not given | robust Z-score | 26.8
CCc1cnn2c(NCc3ccc[n+]([O-])c3)cc(N3CCCC[C@H]3CCO)nc12 | Bromodomain-containing protein 4 (BRD4, Homo sapiens, UniProt O60885) | 19F NMR, item: tyrosine 118 | – | 186 µM | reference: free protein | chemical shift change | -0.036 ppm
NCCCCC(=O)O | Sodium- and chloride-dependent taurine transporter (SLC6A6, Homo sapiens, UniProt P31641, Y138A) | binding, microscale thermophoresis | – | 7.81 µM, room temperature, together with: 50 nM labelled protein | higher = more binding | normalised MST signal | 0.00773

Compound | target or system | assay | test system | setting | scale | endpoint | result
C/C=C/C(=O)SCCNC(=O)CCNC(=O)[C@H](O)C(C)(C)COP(=O)(O)OP(=O)(O)OC[C@H]1O[C@@H](n2cnc3c(N)ncnc32)[C@H](O)[C@@H]1OP(=O)(O)O | – | binding, MIDAS equilibrium dialysis LC-MS | A2AR-BRIL thermostabilized | concentration not given | reference: no-protein control | log2 fold change | -0.888
O=C(COP(=O)(O)O)[C@@H](O)[C@H](O)[C@H](O)COP(=O)(O)O | Small ribosomal subunit protein uS19 (Homo sapiens, UniProt P62841) | thermal proteome profiling, item: RPS15 | HepG2 cell lysate | concentration not given, 57 over 37 °C, mean | reference: compound over control | thermal stability ratio | 0.59
Cc1nc2nc(C(C)(F)F)nn2c(Nc2ccc(C(F)(F)F)cc2)c1F | pyrD | enzyme activity, inhibitor, colorimetric HTS, item: DCIP reduction | – | 3 µM | direction not given | robust Z-score | 18.6
CCCCC/C=C\C/C=C\C/C=C\C/C=C\CCCC(=O)O | Cytochrome P450 2J2 (CYP2J2, Homo sapiens, UniProt P51589, L2A) | substrate | – | 50 µM | – | metabolism rate | 50 ± 4.1 pmol/min/nmol CYP2J2
C[C@H](O)[C@@H](O)[C@@H](O)[C@H](O)C(=O)O | – | binding, MIDAS equilibrium dialysis LC-MS | A2AR-BRIL thermostabilized | concentration not given | reference: no-protein control | log2 fold change | 0.0517
CN1CCC(=C2c3ccccc3Sc3ccccc32)CC1 | 5-hydroxytryptamine receptor 1D (HTR1D, Homo sapiens, UniProt P28221) | agonist | – | concentration not given | – | agonist activity | inactive
CC(=O)NCCCC[C@H](NC(=O)CNC(=O)[C@H](CCCNC(=N)N)NC(C)=O)C(=O)Nc1ccc2c(C)cc(=O)oc2c1 | human Y386F mutant enzyme | substrate, fluorogenic | – | – | – | Km | 16 ± 4 µM
CC1=NN(c2cccc([N+](=O)[O-])c2)C(=O)C1=NNc1ccc(S(N)(=O)=O)cc1 | bovine α-glucosidase | enzyme activity, inhibitor, glucose oxidase | – | 10 µg/mL, together with: maltose | – | inhibition | 34.884 ± 0.0019%
Oc1ccccc1-c1n[nH]cc1-c1ccnc2ccccc12 | Serine/threonine-protein kinase CLA4 (CLA4, Candida albicans, UniProt O14427) | kinase binding, MIB/MS competition | Candida albicans lysate | 10 µM | reference: DMSO, negative = stronger binding | log2 fold change | 0
O=C(COc1ccc(Cl)cc1Cl)Nc1nn(-c2ccccc2)c2ncccc12 | Kir3.1/Kir3.4 | activator, thallium flux | HEK293 | concentration not given | – | activity | inactive
COc1cc(F)cc2c(N3CCN4c5ccccc5NCC4C3)c(C#N)nnc12 (centres unmarked) | Grm7 | positive allosteric modulator | cell-based | together with: L-AP4 EC20 | reference: L-AP4 maximum | maximal response | 55%
O=C(CN1C(=O)S/C(=C\c2cccc([N+](=O)[O-])c2)C1=O)c1ccc([N+](=O)[O-])cc1 | AKR1B1 | enzyme activity, inhibitor | – | – | – | Hill slope | -0.496
Cn1cc(-c2ccc(-c3cncc(Cl)c3N3CCC4(CCNC4=O)CC3)cc2)cn1 | COLO 205 | microarray, item: ADM | – | concentration not given, 6 h | reference: untreated cells | fold change in expression | 1.86
C[C@]12C[C@H](O)[C@H]3[C@@H](CCC4=CC(=O)CC[C@@]43C)[C@@H]1CC[C@@H]2C(=O)CO | Cytochrome P450 11B1, mitochondrial (CYP11B1, Homo sapiens, UniProt P15538, V320A) | substrate | – | 100 µM, 37 °C, phospholipid vesicles | – | NADPH consumption rate, 18-hydroxylation | 65.9 ± 6.7 min⁻¹
N#Cc1ccsc1NC(=O)COc1cc(Cl)ccc1Cl | Kir3.1/Kir3.4 | activator, thallium flux | HEK293 | concentration not given | – | activity | inactive
NCCCC[C@H](N)C(=O)Nc1ccc2ccccc2c1 | rat aminopeptidase III | substrate | – | MW 110 kDa | – | kcat | 5.17 s⁻¹

Some of these lines once more:
Compound | target or system | assay | test system | setting | scale | endpoint | result
CCCCC/C=C\C/C=C\C/C=C\C/C=C\CCCC(=O)O | Cytochrome P450 2J2 (CYP2J2, Homo sapiens, UniProt P51589, L2A) | substrate | – | 50 µM | – | metabolism rate | 50 ± 4.1 pmol/min/nmol CYP2J2
CC1=NN(c2cccc([N+](=O)[O-])c2)C(=O)C1=NNc1ccc(S(N)(=O)=O)cc1 | bovine α-glucosidase | enzyme activity, inhibitor, glucose oxidase | – | 10 µg/mL, together with: maltose | – | inhibition | 34.884 ± 0.0019%
CN1CCC(=C2c3ccccc3Sc3ccccc32)CC1 | 5-hydroxytryptamine receptor 1D (HTR1D, Homo sapiens, UniProt P28221) | agonist | – | concentration not given | – | agonist activity | inactive
O=C(CN1C(=O)S/C(=C\c2cccc([N+](=O)[O-])c2)C1=O)c1ccc([N+](=O)[O-])cc1 | AKR1B1 | enzyme activity, inhibitor | – | – | – | Hill slope | -0.496
